Assay results pooled from the literature.
Numbered parts are unrelated; each lists some results of a single study. Positions count from the first letter of the parent shown.

Block 1 — method: RNA Bind-n-Seq; molecule type: RNA; medium: in vitro; tested at: 200 nM; notes: whole 134-nt RNA, ends assumed; added: 150 mM LiCl; baseline: input library; reading: higher = stronger binding; each molecule: 7-deaza-guanosine replaces G
Target: Ras GTPase-activating protein-binding protein 1, full length (G3BP1, Homo sapiens, UniProt Q13283)
UniProt Q13283, sequence (whole entry, looked up): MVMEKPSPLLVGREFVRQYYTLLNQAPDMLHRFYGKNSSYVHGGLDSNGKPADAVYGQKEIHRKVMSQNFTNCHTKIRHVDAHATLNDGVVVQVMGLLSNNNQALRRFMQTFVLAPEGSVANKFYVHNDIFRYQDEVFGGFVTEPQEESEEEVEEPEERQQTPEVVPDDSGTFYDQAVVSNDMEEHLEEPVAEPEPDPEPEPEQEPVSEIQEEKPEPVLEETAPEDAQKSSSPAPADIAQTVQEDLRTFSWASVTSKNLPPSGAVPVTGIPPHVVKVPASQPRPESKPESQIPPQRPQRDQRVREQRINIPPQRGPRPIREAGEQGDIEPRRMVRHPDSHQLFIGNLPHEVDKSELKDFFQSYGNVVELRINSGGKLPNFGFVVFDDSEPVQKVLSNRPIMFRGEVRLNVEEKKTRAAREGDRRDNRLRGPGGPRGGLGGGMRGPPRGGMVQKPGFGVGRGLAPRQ
Constant ends, left off below: GGGAGUUCUACAGUCCGACGAUC … UGGAAUUCUCGGGUGUCAAGG
Sequence | log2 enrichment
AGUCCUGUGCUACACAUCGUAUGUACCGAAUCGGGGAAAAAGGGGAAAGGGGAGGGGAAAGUAUUAUGUUACGCCGUUCGGAUCUGCACU | -0.046
ACCAUGCAGGUGGGCAUCUUUGGGAAGUGGGGCAAGGGGGGGAUAGGGAGGGGGGUAACACUUUGGGUACAGGUGGUCCCAGGUCGUUUC | 0.0372
CCUGUGCUACACAUCGUAUGUACCGAAUCGGGGUUUUUGGGGAAAAAGGGGAAAAAGGGGAAAGUAUUAUGUUACGCCGUUCGGAUCUGC | 0.221
UCAAGUCCUGUGCUACACAUCGUAUGUACCGAAUCGGGGAAAGGAAAGGAAAGGAAAGUAUUAUGUUACGCCGUUCGGAUCUGCACUUCC | -0.172
UGGGAGGUGGAUUUUGUUUAUUUUUUUAGCUCAUUUCCAGGGGUGGGAAUUUUUUUUUAAUAUGUGUCAUGAUUAAAGUUGUUUUUGAAA | -0.169
AGUCCUGUGCUACACAUCGUAUGUACCGAAUCAAAUUUAAACCCAAACCCCCCCAAAAAAGUAUUAUGUUACGCCGUUCGGAUCUGCACU | 1.05
UGGGAGGUGGAUCUUGUUUAUUUUUUUAGCUCAUUUCCAGGGGUGGGAAUUUUUUUUUAAUAUGUGUCAUGAAUAAAGUUGUUUUUGAAA | 0.293
CACAGACAACACGCACCCACACAGACACAGAGGGAAGGGGUUGGGAUGGGGACAGGGUGCACAGCAGGGCGGGGUAGGAACCCAGCCCCU | 0.714
UCAAGUCCUGUGCUACACAUCGUAUGUACCGAAUCGGGGAAGGGAAGGGAAGGGAAAGUAUUAUGUUACGCCGUUCGGAUCUGCACUUCC | -0.362
CCUGUGCUACACAUCGUAUGUACCGAAUCGGGAAAAAAGGGGAAAAAAGGGGAAAAAAGGAAAGUAUUAUGUUACGCCGUUCGGAUCUGC | 0.414
GAAAGAAGUAAAAACAAAUGGAAAUGCUUCGGAUAGUGGCAGGGGUGGGGGUUGCUAAGGAAAGGGUGGGAUGGGAGUGGGUAAAGAGUU | -0.383

Block 2 — target: BIRC6 UBC core domain (UniProt Q9NR09); method: yeast two-hybrid; medium: yeast; notes: mostly zero background; baseline: not given; reading: higher = stronger interaction
B1: TRIM43 RING domain (UniProt Q96BQ3); chain FSHAFQKELTCVICLNYLVDPVTICCGHSFCRPCLCLSWEEAQSPANCPACREPSPKMDFKT
B2: TRIM40 RING domain (UniProt Q6P9F5); chain LQKDNQEEGVCPICQESLKEAVSTNCGHLFCRVCLTQHVEKASASGVFCCPLCRKPCSEEVLG
B3: TRIM5 RING domain (UniProt Q9C035); chain ILVNVKEEVTCPICLELLTQPLSLDCGHSFCQACLTANHKKSMLDKGESSCPVCRISYQPENIRP
B4: SH3RF2 RING domain (UniProt Q8TEC5); chain DDLTLLDLLECPVCFEKLDVTAKVLPCQHTFCKPCLQRVFKAHKELRCPECRTPVFSNIEAL
B5: VPS41 RING domain (UniProt P49754); chain KGVLVDEENICESCLSPILPSDAAKPFSVVVFHCRHMFHKECLPMPSMNSAAQFCNICSAKNRGPGSAI
B6: NEURL1 RING domain (UniProt O76050); chain VTPGLGQWSDECTICYEHAVDTVIYTCGHMCLCYACGLRLKKALHACCPICRRPIKDIIKT
B7: TRIML1 RING domain (UniProt Q8N9V2); chain LMENLREELTCFICLDYFSSPVTTECGHSFCLVCLLRSWEEHNTPLSCPECWRTLEGPHFQS
Construct (chain): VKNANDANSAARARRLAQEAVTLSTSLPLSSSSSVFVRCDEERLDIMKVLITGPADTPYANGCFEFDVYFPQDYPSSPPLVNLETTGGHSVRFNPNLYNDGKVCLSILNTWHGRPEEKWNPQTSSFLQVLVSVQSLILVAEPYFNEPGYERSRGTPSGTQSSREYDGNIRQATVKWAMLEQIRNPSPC
Sequence | lacZ reporter activity
FQGDVDEDLICPICSGVLEEPVQAPHCEHAFCNACITQWFSQQQTCPVDRSVVTVAHLRP (RNF41 RING domain (UniProt Q9H4P4)) | 0
PAELEVQASECVVCLEREAQMIFLNCGHVCCCQQCCQPLRTCPLCRQDIAQRLRIY (LRSAM1 RING domain (UniProt Q6UWE0)) | 0
B1 (TRIM43 RING domain) | 0
B2 (TRIM40 RING domain) | 0
QVDKAVFHMQSVKCLKCQEQKRAVLPCQHAALCELCAEGSECPICQPGRAHTLQS (UNK RING domain (UniProt Q9C0B0)) | 0
GAAPGPEAAECLVCSELALLVLFSPCQHRTVCEECARRMKKCIRCQVVVSKKLRPD (MIB2 RING domain (UniProt Q96AX9)) | 0
B3 (TRIM5 RING domain) | 0
B4 (SH3RF2 RING domain) | 0
MPIRALCTICSDFFDHSRDVAAIHCGHTFHLQCLIQWFETAPSRTCPQCRIQVGKRTIIN (TRAIP RING domain (UniProt Q9BWF2)) | 0
B5 (VPS41 RING domain) | 0
B6 (NEURL1 RING domain) | 0
B7 (TRIML1 RING domain) | 0

Block 3 — method: DHFR PCA, deep sequencing; medium: yeast; added: (+)-ABA 17 µM; baseline: wild-type fitted maximum; reading: higher = stronger binding
Target: ABI1, truncated, D143A, DHFR fusion (Arabidopsis thaliana)
Notes: methotrexate growth selection, single substitutions
Starting sequence: PYL1, truncated, DHFR fusion (Arabidopsis thaliana); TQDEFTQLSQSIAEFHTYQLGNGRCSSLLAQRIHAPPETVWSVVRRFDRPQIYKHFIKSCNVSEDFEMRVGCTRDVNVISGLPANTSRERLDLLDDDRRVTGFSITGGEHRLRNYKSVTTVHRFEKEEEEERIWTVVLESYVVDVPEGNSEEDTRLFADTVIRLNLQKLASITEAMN; partner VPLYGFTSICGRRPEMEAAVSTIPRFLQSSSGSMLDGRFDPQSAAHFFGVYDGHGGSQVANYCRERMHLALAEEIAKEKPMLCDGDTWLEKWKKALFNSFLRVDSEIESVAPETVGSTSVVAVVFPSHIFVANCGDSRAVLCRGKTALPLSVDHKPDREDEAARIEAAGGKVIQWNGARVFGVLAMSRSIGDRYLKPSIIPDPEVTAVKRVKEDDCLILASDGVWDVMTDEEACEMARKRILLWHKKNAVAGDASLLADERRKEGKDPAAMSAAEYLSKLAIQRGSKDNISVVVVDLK
Change | relative binding score [%]
S104C | 38.2
R155N | 45.9
Q2A | 88.1
L82S | 4.95
V118A | 31.3
G102Q | 15.5
A35N | -3.23
S87N | -3.46
T135H | 11.8
Y115N | 8.43
T1V | 89.1
S9K | 81.2

Block 4 — target: CCND3, cyclin fold, Cln2 fusion (human); method: yeast growth competition, sequencing; medium: yeast; notes: weak parent motif; baseline: not given; reading: higher = stronger binding
Starting sequence: CDC6 docking peptide (human); TLKGRRLVFDNQL
Change | normalised enrichment score
L7R | 0.169
R6N | 0.113
R5L | 0.138
L13N | 0.0825
T1F | 0.0181
G4H | 0.145
T1W | 0.234
V8L | 0.186
V8Y | 0.07
D10E | -0.0464
L13H | 0.0249
Q12W | 0.223
V8I | 0.0278
V8S | 0.0994
K3C | 0.154
Q12V | 0.16
F9C | 0.0892
Q12Y | 0.159
D10F | 0.0757
Q12F | 0.041
R5K F9L | 0.482
R5H | 0.0941
T1K | 0.189

Block 5 — method: RNA Bind-n-Seq; molecule type: RNA; medium: in vitro; tested at: not given; baseline: input RNA pool; reading: higher = stronger binding
Target: RING finger protein unkempt homolog, zinc fingers 1-6, GST-SBP tag (UNK, Homo sapiens, UniProt Q9C0B0, residues 30-357)
Notes: RNA with constant flanks, human and mouse sites, ends assumed
Constant ends, left off below: GGGAGUUCUACAGUCCGACGAUC … CAACAGAGGAUUGAGCAUCA
Sequence | bound/input enrichment
AGAAAGAUGGAAGAAAAAUACCAACUAACAGCACGAUUGAACAUGGAACAGCUGCUUCAGUCUGCAAGUAUGGAGCUCAAGUUCUUAAUUAUUCAGAAUGCUGCGGUUUUCCAAGAGGCC | 0.12 ratio
AGUAUUAAAAAGAUCAUACAUGUGCUGGAGAAGGUGCAGUUUCUUGAGCAAGAAGUAGAAGAGUUUGUAGGAAAAAAGACAGACAAAGCGUAUUGGCUUCUGGAAGAAAUGCUGACAAAG | 0.381 ratio
UUUCAUUUAAGGACUUGUGCUGCUAAGUUGAGGCCAUUGACGGCUUCCCAGACUGUUAAGACAUUUUCACAAAACAGACCAGCAGCAGCUAGGACAUUUCAACAGAUUCGGUGCUAUUCU | 0.576 ratio
UCAUACAGUGUCAGAACAAAGGCUGGGAUGGGUAUGAUGUACAGUGGGAAUGUAAGACGGACUUAGAUAUUGCAUACAAAUUUGGAAAAACUGUGGUGAGCUGUGAAGGCUAUGAGUCCU | 2.95 ratio
CUACAUCCCUGGCUGCCGCUGCUGUUACUUCAGGAUGAAAGGGGAGACCCCCGUUAACAGCACUAUGAGUAUUGGUCAAGCACGCAAGAUGGUGGAACAGCUUAAGAUUGAGGCCAGCUU | 0.178 ratio
GAGAAACAAUGAAUAGUACAUGUAUAUGUAUAUUUUUAAACUGCCUUAUUGCUCAAUGAGUUGCUGUUCCUGGAGUAUCUAACUUUCAGUUUACUCAAAAACUUUUGGGUAAAUAAAAAA | 0.5 ratio
CAACAUGGAACCCAGCAACAAGACCUUAAUAAGAAAGAAAGAAGAGUAGGAACUCCUCAAAGUACAAAAAAGAAAAAAGAAAGCAGAAGAGCCACUGAAAGCAGAAUACCUGUUUCAAAG | 0.638 ratio
UCCACAGAAGCCUCAUCCCAAGAACAUCAACACAGAGCUCCCGACGCUGGGAUUGUAUCUAGUAUACCUUUACAAAGACUUUUUAAACCAAAGGACAUGGACUGUUGGGAAGUUCAGACU | 0.776 ratio
UCUGUUUGUUUUUCUGUUGUUGUAGCUUUUUUUGUCCUGUUAUGUUUUAUCUGUUUGUAUUUUAGAAGGGGGAGGGGAAGUUGUAAUUAUUUCAUCUAAGUCUCCCAUUAUAUAUCUGUG | 6.54 ratio
UUUGUUUGUAACUUAUCUGUAAAAGGUUCCCCCCCCCUACUGUCAAAAAAUAUGCAUGUAUAGUAAUUAGGACUUCAUUCCUCCAUGUUUUCUUCCCUUAUCUUACUGUCAUUGUCCUUA | 2.48 ratio
GGCAACACUCCUUGCAGAUCCAGAAACUGAGGCACAAUAGGGUUAUGACUUGCUCAAGAAUAUGUAGCUGCUAGGGGGUAAAUCAAGGCAUCACAAUUUCUGUUCAGCGGGCAGGAAUAG | 2.61 ratio
